# Results of several laboratories.
# Each numbered part is a random draw from the data of one study; scales do not carry over between parts. Changes are numbered by the printed parent chain.

# Study 1 — target: CCND1, cyclin fold, Cln2 fusion (human); method: yeast growth competition, sequencing; sample: yeast; notes: strong parent motif; reference: not given; direction: higher = stronger binding
# Starting sequence: PKN2 docking peptide (human); VSAVQKLDFSDTM; partner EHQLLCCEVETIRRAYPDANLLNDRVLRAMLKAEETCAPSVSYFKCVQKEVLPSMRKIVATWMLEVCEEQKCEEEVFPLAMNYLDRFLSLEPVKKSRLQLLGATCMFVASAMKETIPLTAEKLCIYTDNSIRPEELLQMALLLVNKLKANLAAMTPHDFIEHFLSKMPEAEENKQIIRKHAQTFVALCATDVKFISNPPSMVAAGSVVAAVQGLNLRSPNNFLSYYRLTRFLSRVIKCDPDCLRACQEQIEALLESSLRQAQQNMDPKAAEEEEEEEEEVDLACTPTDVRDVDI
Substitution,normalised enrichment score
VSAVQILDFSDTM [K6I],0.979
VSAVQKKDFSDTM [L7K],-0.31
VSAVQKLKFSDTM [D8K],0.706
VSAVQKLDFSHTM [D11H],1.49
VSAVQALDFSDTM [K6A],1.18
VSHVQKLDFSDTM [A3H],0.935
VFAVQKLDFSDTM [S2F],1.61
VSAVAKADFSDTM [Q5A L7A],0.1
ESAVQKLDFSDTM [V1E],1.36
VSAVQKLDFSWTM [D11W],1.44
VSAVQYLDFSDTM [K6Y],1.89
ISAVQKLDFSDTM [V1I],1.95
VSAVQKLDFSDTG [M13G],1.9
VSAVQKLPFSDTM [D8P],0.715
VSAVQKLDFSDTI [M13I],1.81

# Study 2 — method: RNA Bind-n-Seq; form: RNA; sample: in vitro; tested at: 200 nM; notes: whole 134-nt RNA, ends assumed; with: 150 mM KCl; reference: input library; direction: higher = stronger binding
# Target: Ras GTPase-activating protein-binding protein 1, full length (G3BP1, Homo sapiens, UniProt Q13283)
# UniProt Q13283, sequence (whole entry, looked up): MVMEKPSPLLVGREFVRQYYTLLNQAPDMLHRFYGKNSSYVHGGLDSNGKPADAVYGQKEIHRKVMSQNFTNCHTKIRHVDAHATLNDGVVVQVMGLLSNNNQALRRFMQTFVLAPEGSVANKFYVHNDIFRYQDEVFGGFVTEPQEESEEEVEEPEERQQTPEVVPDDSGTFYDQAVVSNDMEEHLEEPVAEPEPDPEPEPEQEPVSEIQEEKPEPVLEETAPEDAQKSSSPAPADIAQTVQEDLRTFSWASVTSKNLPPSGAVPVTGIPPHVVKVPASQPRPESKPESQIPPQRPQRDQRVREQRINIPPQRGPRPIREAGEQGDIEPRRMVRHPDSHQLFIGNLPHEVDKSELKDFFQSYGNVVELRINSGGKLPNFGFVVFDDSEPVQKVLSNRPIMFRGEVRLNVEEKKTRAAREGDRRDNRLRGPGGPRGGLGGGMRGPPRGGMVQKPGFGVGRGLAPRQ
# All sequences stand within: GGGAGUUCUACAGUCCGACGAUC … UGGAAUUCUCGGGUGUCAAGG
Strand,log2 enrichment
CCUGUGCUACACAUCGUAUGUACCGAAUCGGGGUUUUUGGGGAAAGGGGUUUUUUUGGGGAAAGUAUUAUGUUACGCCGUUCGGAUCUGC,0.227
CUGUGCUACACAUCGUAUGUACCGAAUCGGGCCCCCCCGGGCCCCCCCGGGCCCCCCCGGGAAAGUAUUAUGUUACGCCGUUCGGAUCUG,-0.961
UUGGACUUGGAGCAUCUGCUCAGUGAGUCUCCAGAAGGAAGUCCCUUCCGAGAUAUGGAUGAUGGAAGUGAUUCCCUUGGGGUGGGAUUG,-1.63
CCUGUGCUACACAUCGUAUGUACCGAAUCGGGAAAAAAAGGGUUUUUGGGUUUUUUUGGGAAAGUAUUAUGUUACGCCGUUCGGAUCUGC,-0.947
AAGUCCUGUGCUACACAUCGUAUGUACCGAAUCGGUUUUUUUGGUGGAAAAAAAGGAAAGUAUUAUGUUACGCCGUUCGGAUCUGCACUU,-1.29
CUCAAGUCCUGUGCUACACAUCGUAUGUACCGAAUCGGAGGAAAAAAAGGAGGAAAGUAUUAUGUUACGCCGUUCGGAUCUGCACUUCCA,-0.388
AGUCCUGUGCUACACAUCGUAUGUACCGAAUCGGGGAAAGGGGUUUUUGGGGUGGGGAAAGUAUUAUGUUACGCCGUUCGGAUCUGCACU,0.536
UGGGAGGUGGAUUUUGUUUAUUUUUUUAGCUCAUUUCCAGGGGUGGGACUUUUUUUUUAAUAUGUGUCAUGAAUAAAGUUGUUUUUGAAA,0.168
CUCAAGUCCUGUGCUACACAUCGUAUGUACCGAAUCGGGUGGGUUUGGGUGGGAAAGUAUUAUGUUACGCCGUUCGGAUCUGCACUUCCA,1.02

# Study 3 — method: protein binding microarray; form: double-stranded DNA, one strand shown; sample: in vitro; tested at: not given; reference: not given; direction: higher = stronger binding
# Target: Histone acetyltransferase KAT6A, both winged helices, GST fusion (KAT6A, Homo sapiens, UniProt Q92794, residues 1-181)
# Notes: 8-mer, flanks averaged, mean of 2 arrays, mostly near background
# Residues (chain): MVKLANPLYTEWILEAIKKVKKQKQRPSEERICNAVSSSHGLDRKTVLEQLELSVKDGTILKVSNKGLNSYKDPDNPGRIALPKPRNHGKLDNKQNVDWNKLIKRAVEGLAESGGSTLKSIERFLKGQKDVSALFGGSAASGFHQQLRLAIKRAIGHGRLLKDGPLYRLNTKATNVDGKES
Strand,E-score
GTCTTTAA,-0.167
GGATTGTA,-0.054
GCCAAGCA,-0.203
CAAGGCTG,-0.248
AGATGGTG,-0.217
GCAATAAA,0.00583
GATGTACC,-0.0821
CATGACTA,-0.0468
ACGTATCG,0.0953
ATATGTGG,-0.177
AAATAACT,-0.0558
GGAATCCC,-0.0588
GAAAGCCA,-0.278
CCAGACAG,-0.224
AGTTCTAT,-0.0991
AGATGCAG,-0.215
ATCATTAC,-0.0527
CGGCGTGA,0.302
CCTATCTA,-0.258
TCATGGCA,-0.018
ATATGTTG,-0.0385
AATGTATG,0.0795
AATTGGGG,-0.211
AGAAGCAG,-0.245
AGCACCGA,-0.0264

# Study 4 — method: protein-binding microarray; form: double-stranded DNA, one strand shown; sample: in vitro; tested at: 940 nM top; notes: 60-bp whole probe; with: salmon DNA 0.4 mg/ml; reference: random background probes; direction: higher = stronger binding; all sequences stand within: GCCTAGCAC … GTCTTGATTCGCTTGACGCTGCTG
# Target: Interferon regulatory factor 5, full length, phosphomimetic (IRF5, Homo sapiens, UniProt Q13568-2, residues 1-514, S451D/S453D/S456D/S462D)
Strand,fitted relative affinity [z-score]
GTTTGTATATATTTTAACCCGTGCTAG,0.315
AACGGACTGCTTTTCCTGACGTGCTAG,-0.143
GACGATATCGGGTATCGAGACGTGCTA,0.691
TTAGGTCTCGACTATCGGTTAGTGCTA,2.17
TCATTTTTCTTTAAAAGACTGTGCTAG,0.35
TGTGATCTCATATGAAAACAGTGCTAG,0.365
TTAGGTTGCGGTCTCGGTTAGTGCTAG,2.88
TCAGTTTTAAATTCTAAACTGTGCTAG,0.15
CTGCCTGGCCAAGCCCAGATGTGCTAG,-0.00282
GACGCTCTCAGTCTCGAGACGTGCTAG,1.99
GACGGTTTCGGACCGGGGACGTGCTAG,5.71
GACGAGTTCAGTCTCGAGACGTGCTAG,1.29
GATGATATCAGTCTCGAGACGTGCTAG,1.21
AACGGTATCGGTTTCGGGACGTGCTAG,9.35
CCAGTTGAGCACAGGAAAGTGTGCTAG,-0.462
TCATTTAGAAATTTCTTACTGTGCTAG,0.209
GATGGACTGCTTCTCCTGACGTGCTAG,-0.000212
GACGGTATCGGTTTCGGTACGTGCTAG,11.6
GACGGTTTCCTACTGCTAACGTGCTAG,0.704

# Study 5 — method: DHFR PCA, deep sequencing; sample: yeast; with: (+)-ABA 0.0091 µM; reference: wild-type fitted maximum; direction: higher = stronger binding
# Target: ABI1, truncated, D143A, DHFR fusion (Arabidopsis thaliana)
# Notes: methotrexate growth selection, single substitutions
# Starting sequence: PYL1, truncated, DHFR fusion (Arabidopsis thaliana); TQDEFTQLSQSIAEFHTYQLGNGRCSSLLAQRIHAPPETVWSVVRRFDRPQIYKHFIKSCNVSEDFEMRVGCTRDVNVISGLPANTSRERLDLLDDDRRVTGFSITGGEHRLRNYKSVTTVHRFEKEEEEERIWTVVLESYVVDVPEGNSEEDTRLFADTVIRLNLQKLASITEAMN; partner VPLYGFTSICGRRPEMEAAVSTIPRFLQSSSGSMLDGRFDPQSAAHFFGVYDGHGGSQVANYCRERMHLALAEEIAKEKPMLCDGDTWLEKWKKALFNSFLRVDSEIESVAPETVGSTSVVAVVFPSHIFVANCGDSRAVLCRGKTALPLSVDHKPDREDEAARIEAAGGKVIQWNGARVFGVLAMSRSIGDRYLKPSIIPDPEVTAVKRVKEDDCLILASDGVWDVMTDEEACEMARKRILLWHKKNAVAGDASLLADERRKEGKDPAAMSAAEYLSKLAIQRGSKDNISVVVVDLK
Substitution,relative binding score [%]
A30E,-0.0107
N177K,21.3
E89T,2.74
Q31M,0.33
L29T,1.69
W41Y,-9.75
R49H,0.677
V70T,3.26
L166T,1.05
L82M,39.1
E174M,-3.14
E139Q,16.7

# Single results of other studies
Molecule,target,test,test system,setting,scale,measurement,value
"PhoQ, residues 284 288 289 292 302 303 GLASVI","PhoP, residues 12 14 15 18 19 NFCKL (Escherichia coli, UniProt P23836)","Sort-seq, item: YFP reporter",E. coli,"PhoQ-PhoP variant library, with: 10 µM Mg2+","reference: high Mg2+ state, higher = stronger signaling",fold induction,12.6

# Some of these lines once more (study 1):
Substitution,normalised enrichment score
VSAVQKLDFSHTM [D11H],1.49
VSAVQALDFSDTM [K6A],1.18
VSHVQKLDFSDTM [A3H],0.935
VFAVQKLDFSDTM [S2F],1.61
VSAVAKADFSDTM [Q5A L7A],0.1
ESAVQKLDFSDTM [V1E],1.36
VSAVQKLDFSWTM [D11W],1.44
VSAVQYLDFSDTM [K6Y],1.89
ISAVQKLDFSDTM [V1I],1.95
